Measured values of several laboratories.
Values joined by “and” are separate records of one study, mostly repeats; a detail may differ. ± marks the error that the study gave.
UniProt Q8IVT5, sequence (whole entry, looked up): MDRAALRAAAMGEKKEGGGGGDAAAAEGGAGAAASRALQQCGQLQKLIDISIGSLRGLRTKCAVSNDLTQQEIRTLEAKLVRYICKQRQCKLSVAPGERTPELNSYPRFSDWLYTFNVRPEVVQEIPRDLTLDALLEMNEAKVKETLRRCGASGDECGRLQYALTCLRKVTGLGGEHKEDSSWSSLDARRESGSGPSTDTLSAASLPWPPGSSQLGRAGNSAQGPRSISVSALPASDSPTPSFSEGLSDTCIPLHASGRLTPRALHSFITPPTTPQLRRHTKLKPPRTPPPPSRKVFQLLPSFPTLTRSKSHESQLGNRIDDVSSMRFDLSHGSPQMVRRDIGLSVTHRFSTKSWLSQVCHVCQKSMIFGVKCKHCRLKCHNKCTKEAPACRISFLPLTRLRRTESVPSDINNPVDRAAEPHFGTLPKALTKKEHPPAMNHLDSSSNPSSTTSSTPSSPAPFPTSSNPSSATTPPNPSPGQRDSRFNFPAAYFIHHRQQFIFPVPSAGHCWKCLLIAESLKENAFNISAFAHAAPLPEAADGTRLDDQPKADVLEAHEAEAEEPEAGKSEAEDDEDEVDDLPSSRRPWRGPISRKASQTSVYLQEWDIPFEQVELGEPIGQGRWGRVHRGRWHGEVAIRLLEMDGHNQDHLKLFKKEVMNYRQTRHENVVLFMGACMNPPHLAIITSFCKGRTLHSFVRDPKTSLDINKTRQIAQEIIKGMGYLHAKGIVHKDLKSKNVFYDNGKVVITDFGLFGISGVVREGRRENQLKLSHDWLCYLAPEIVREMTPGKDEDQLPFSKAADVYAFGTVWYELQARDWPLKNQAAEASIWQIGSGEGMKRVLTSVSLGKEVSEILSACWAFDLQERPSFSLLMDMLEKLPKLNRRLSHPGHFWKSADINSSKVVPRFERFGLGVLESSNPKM
UniProt Q96RR4, sequence (whole entry, looked up): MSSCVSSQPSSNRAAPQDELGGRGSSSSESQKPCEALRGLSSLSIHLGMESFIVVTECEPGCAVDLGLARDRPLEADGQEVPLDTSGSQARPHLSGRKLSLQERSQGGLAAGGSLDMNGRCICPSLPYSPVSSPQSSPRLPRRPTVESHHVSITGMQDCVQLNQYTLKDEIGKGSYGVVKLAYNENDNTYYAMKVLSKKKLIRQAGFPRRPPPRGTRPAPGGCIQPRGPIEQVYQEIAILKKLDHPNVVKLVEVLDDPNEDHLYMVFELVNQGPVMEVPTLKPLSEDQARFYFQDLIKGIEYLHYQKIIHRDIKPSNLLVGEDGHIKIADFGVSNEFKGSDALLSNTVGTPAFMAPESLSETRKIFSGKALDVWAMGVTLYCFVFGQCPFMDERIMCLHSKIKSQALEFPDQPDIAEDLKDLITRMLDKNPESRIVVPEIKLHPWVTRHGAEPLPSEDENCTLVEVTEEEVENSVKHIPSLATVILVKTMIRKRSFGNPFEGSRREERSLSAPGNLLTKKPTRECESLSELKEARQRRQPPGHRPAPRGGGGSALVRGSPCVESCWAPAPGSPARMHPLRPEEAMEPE
UniProt Q9H3Y6, sequence (whole entry, looked up): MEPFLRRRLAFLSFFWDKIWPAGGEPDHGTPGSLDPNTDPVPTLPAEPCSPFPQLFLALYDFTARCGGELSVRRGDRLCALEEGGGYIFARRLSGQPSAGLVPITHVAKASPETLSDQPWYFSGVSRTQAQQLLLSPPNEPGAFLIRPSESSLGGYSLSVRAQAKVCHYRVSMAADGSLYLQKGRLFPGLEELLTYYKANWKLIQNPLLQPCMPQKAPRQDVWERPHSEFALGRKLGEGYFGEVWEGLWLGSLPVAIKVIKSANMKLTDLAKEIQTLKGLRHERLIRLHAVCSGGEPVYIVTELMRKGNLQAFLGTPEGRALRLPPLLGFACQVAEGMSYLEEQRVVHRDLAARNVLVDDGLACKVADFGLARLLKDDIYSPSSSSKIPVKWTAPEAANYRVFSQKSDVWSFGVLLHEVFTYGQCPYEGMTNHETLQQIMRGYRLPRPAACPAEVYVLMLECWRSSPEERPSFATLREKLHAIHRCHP

| Compound | target or system | assay | test system | setting | how to read | endpoint | result |
| --- | --- | --- | --- | --- | --- | --- | --- |
| CSCC[C@H](N)C(=O)N[C@@H](C)C(=O)N[C@@H](Cc1c[nH]c2ccccc12)C(=O)N[C@@H](Cc1c[nH]cn1)C(=O)N[C@@H](CC(=O)O)C(=O)N[C@@H](CC(=O)O)C(=O)N[C@@H](CCC(=O)O)C(=O)N[C@@H](CCC(=O)O)C(=O)N[C@@H](Cc1ccccc1)C(=O)N[C@@H](C)C(=O)N[C@@H](CCCNC(=N)N)C(=O)N[C@@H](CCCNC(=N)N)C(=O)N[C@@H](CCCNC(=N)N)C(=O)N[C@@H](CCCNC(=N)N)C(=O)NCCCCCC(=O)NCCCCC(NC(=O)CCCCCNC(=O)[C@H](CCCNC(=N)N)NC(=O)[C@H](CCCNC(=N)N)NC(=O)[C@H](CCCNC(=N)N)NC(=O)[C@H](CCCNC(=N)N)NC(=O)[C@H](C)NC(=O)[C@H](Cc1ccccc1)NC(=O)[C@H](CCC(=O)O)NC(=O)[C@H](CCC(=O)O)NC(=O)[C@H](CC(=O)O)NC(=O)[C@H](CC(=O)O)NC(=O)[C@H](Cc1c[nH]cn1)NC(=O)[C@H](Cc1c[nH]c2ccccc12)NC(=O)[C@H](C)NC(=O)[C@@H](N)CCSC)C(=O)NCCCCC(NC(=O)C(CCCCNC(=O)CCCCCNC(=O)[C@H](CCCNC(=N)N)NC(=O)[C@H](CCCNC(=N)N)NC(=O)[C@H](CCCNC(=N)N)NC(=O)[C@H](CCCNC(=N)N)NC(=O)[C@H](C)NC(=O)[C@H](Cc1ccccc1)NC(=O)[C@H](CCC(=O)O)NC(=O)[C@H](CCC(=O)O)NC(=O)[C@H](CC(=O)O)NC(=O)[C@H](CC(=O)O)NC(=O)[C@H](Cc1c[nH]cn1)NC(=O)[C@H](Cc1c[nH]c2ccccc12)NC(=O)[C@H](C)NC(=O)[C@@H](N)CCSC)NC(=O)CCCCCNC(=O)[C@H](CCCNC(=N)N)NC(=O)[C@H](CCCNC(=N)N)NC(=O)[C@H](CCCNC(=N)N)NC(=O)[C@H](CCCNC(=N)N)NC(=O)[C@H](C)NC(=O)[C@H](Cc1ccccc1)NC(=O)[C@H](CCC(=O)O)NC(=O)[C@H](CCC(=O)O)NC(=O)[C@H](CC(=O)O)NC(=O)[C@H](CC(=O)O)NC(=O)[C@H](Cc1c[nH]cn1)NC(=O)[C@H](Cc1c[nH]c2ccccc12)NC(=O)[C@H](C)NC(=O)[C@@H](N)CCSC)C(N)=O (stereo partly drawn) |  |  | C57BL/6 mouse female, spleen | dose not given, 6 h | relative to: total | tissue distribution | 0.67% and 0.61% and 1.11% |
| CCCC[C@H]1C(=O)N(C)[C@@H](CCCC)C(=O)N[C@@H](CCCNC(=O)CN2CCN(CC(=O)O)CCN(CC(=O)O)CCN(CC(=O)O)CC2)C(=O)N[C@H](C(=O)NCC(N)=O)CSCC(=O)N[C@@H](Cc2ccc(O)cc2)C(=O)N(C)[C@@H](C)C(=O)N[C@@H](CC(N)=O)C(=O)N2CCC[C@H]2C(=O)N[C@@H](Cc2c[nH]cn2)C(=O)N[C@@H](CC(C)C)C(=O)N(C)CC(=O)N[C@@H](Cc2c[nH]c3ccccc23)C(=O)N[C@@H](CO)C(=O)N[C@@H](Cc2c[nH]c3ccccc23)C(=O)N1C [gallium-68 labelled] |  |  | NOD/SCID mice with CHO-hPD-L1 xenograft, heart | 120 min post injection |  | tissue uptake | 2.57 ± 1.32 %ID/g |
| CN1CCCCC1C(=O)NC(Cc1ccc(-c2ccccc2)cc1)B(O)O (stereo not drawn) |  |  | Caco-2 |  |  | Papp A→B | 8.4 ×10⁻⁶ cm/s |
| COc1ccccc1-c1n[nH]c2nc(N[C@H]3CC[C@H](NS(=O)(=O)CC(C)C)CC3)ncc12 |  | bead binding, competition bead pull-down, measured: LINJ.03.0360 | Leishmania donovani extract | 10 µM | relative to: vehicle | relative abundance | 0.83 |
| CC[C@H](C)[C@H](NC(=O)[C@H](CCCCN)NC(=O)CNC(=O)[C@H](CC(C)C)NC(=O)[C@H](Cc1ccccc1)NC(=O)[C@H](CCCCN)NC(=O)[C@H](CO)NC(=O)[C@H](Cc1ccccc1)NC(=O)[C@H](Cc1c[nH]c2ccccc12)NC(=O)[C@H](CCC(N)=O)NC(=O)[C@@H](NC(=O)[C@H](Cc1ccccc1)NC(=O)CCCCCNC(=O)CN1CCN(CC(=O)O)CCN(CC(=O)O)CCN(CC(=O)O)CC1)C(C)C)C(=O)N[C@@H](CCC(=O)O)C(=O)N1CCC[C@H]1C(=O)N[C@H](CC(=O)O)C(=O)N[C@H](C(=O)N[C@@H](CO)C(=O)N[C@@H](CCC(N)=O)C(=O)N[C@H](C(=O)N[C@@H](CCC(N)=O)C(=O)N[C@@H](CC(=O)O)C(=O)N1CCC[C@H]1C(=O)N[C@@H](CC(N)=O)C(=O)N[C@@H](CC(=O)O)C(=O)N[C@@H](CCC(N)=O)C(=O)N[C@@H](Cc1ccc(O)cc1)C(=O)N[C@@H](CCC(=O)O)C(=O)N1CCC[C@H]1C(=O)N[C@@H](Cc1ccccc1)C(=O)O)C(C)C)C(C)C [copper-64 labelled] |  |  | C57BL/6 mice, male, MC-38 tumour-bearing, blood | 2 h, vehicle-treated |  | tissue uptake | 1.21 ± 0.09 %ID/g |
| CC(C)(CCCC/C=C/CCCCCC(C)(C)C(=O)O)C(=O)O |  |  | beagle dog, both sexes | oral, dose not given, 2 h |  | plasma concentration | 21100 ng/mL |
| CCCCC[C@@H]1NC(=O)[C@@H](C)N(C)C(=O)[C@H](CCCCC)N(C)C(=O)[C@@H](C)N(C)C(=O)[C@H](CCCCC)N(C)C(=O)[C@@H](C)N(C)C(=O)[C@H](CCCCC)N(C)C(=O)[C@@H](C)N(C)C1=O |  | PAMPA |  | 500 µM, pH 7.4 |  | log Papp | 4.68 ×10⁻⁶ cm/s |
| O=C1NC2(CC2)COc2ncc(F)cc2[C@H]2COCCN2c2ccn3ncc1c3n2 |  |  | Sprague-Dawley rat, male, blood | oral, 5 mg/kg/day, 4 weeks, end of recovery, subacute toxicity |  | lymphocyte percentage | 85.7 ± 0.9% |
| CC(C)=CCC/C(C)=C\CCn1cc(CC(C)(P(=O)(O)O)P(=O)(O)O)nn1 |  | qRT-PCR, measured: Slco1b2 and Cyp3a11 | CD-1 mice, liver | intravenous, 0.3 mg/kg | relative to: control | mRNA level | increased |
| CCc1nn(C)c2nc(-c3ccc(C(=O)O)cc3)nc(NCc3ccccc3)c12 |  |  | male CD-1 mouse, plasma | intravenous, 1 mg/kg, 15 min |  | concentration | 7.83 ng/mL |
| CC(C)[C@H]1NC(=O)C[C@H]2/C=C/CCSSC[C@@H](NC1=O)C(=O)N[C@H](Cc1cccc3ccccc13)C(=O)NCC(=O)O2 | SRMS (Homo sapiens, UniProt Q9H3Y6) | enzyme activity, inhibitor |  | 10 µM |  | inhibition | -1.7% |
| C=Cc1c(C)c2cc3nc(c(CC(=O)[O-])c4[n-]c(cc5nc(cc1[n-]2)C(C)=C5CC)c(C)c4C(=O)[O-])C(CCC(=O)[O-])C3C.[Cu+2].[Na+].[Na+].[Na+] (stereo not drawn) |  |  | Wistar rat, female | oral, 250 mg/kg daily, 28 days |  | serum albumin | 1.03 ± 0.15 g/dL |
| Cc1nc2cccc(OCC(C)(C)C(=O)NC(C)C)c2c(N)c1C(=O)[O-].[Na+] | Salmonella typhimurium |  | TA98 | 0.80 mg per plate, without S9, preincubation |  | revertant colonies per plate | 23 ± 4 |
| CC(C)[C@@H]1NC(=O)CNC(=O)[C@H](CC(N)=O)NC(=O)[C@H](CCCNC(=N)N)NC(=O)[C@H](Cc2ccc(O)cc2)NC(=O)[C@H](C(C)C)NC(=O)[C@@H](NC(=O)[C@@H](NC(=O)[C@H](CC(N)=O)NC(=O)[C@H](Cc2c[nH]c3ccccc23)NC(=O)[C@H](C)NC(=O)[C@H](Cc2ccccc2)NC(=O)CNC(=O)[C@H](CCCCN)NC(=O)[C@H](Cc2ccccc2)NC(=O)[C@H](Cc2ccccc2)NC(=O)[C@H](CCCCN)NC(=O)OCC2c3ccccc3-c3ccccc32)C(C)C)CSSC[C@@H](C(=O)N[C@@H](Cc2c[nH]cn2)C(=O)N[C@@H](CCCNC(=N)N)C(=O)N[C@@H](CCCNC(=N)N)C(=O)N[C@@H](C)C(=O)N[C@@H](CC(N)=O)C(N)=O)NC(=O)[C@H](C(C)C)NC(=O)[C@H](CCCNC(=N)N)NC1=O |  | HPLC | trypsin buffer | 2.00 h, 37 °C, together with: trypsin 1 % w/v |  | peptide remaining | 50% and 51.8% and 55% |
| CS(C)(=O)=Nc1ccc(-c2ccc(-c3nc4cc(O[C@@H]5CO[C@H]6[C@@H]5OC[C@H]6O)[nH]c4cc3F)cc2)cc1 | CAMKK2 (Homo sapiens, UniProt Q96RR4) | enzyme activity, inhibitor |  | 10 µM |  | inhibition | -3% |
| CC(C(=O)O)n1nc(Cn2cc3cc(OCC[18F])c(Cl)cc3n2)c2ccccc2c1=O (racemic) |  | HPLC | nonhuman primate, plasma | 5 min post-injection | relative to: plasma radioactivity | parent radiotracer | 100% |
| CC(CCC(=O)NCC(=O)O)C1CCC2C3C(O)CC4CC(OC5OC(C(=O)O)C(O)C(O)C5O)CCC4(C)C3CCC12C (stereo not drawn) |  |  | men, T/C genotype, plasma | dose not given, geometric mean |  | glucuronide to parent ratio | 0.158 |
| CCOc1ccccc1-n1c(CN2CCNCC2)nc2ccccc2c1=O |  |  | C57BL/6 mouse, male, plasma | intravenous, 1 mg/kg |  | half-life | 2.38 h |
| CN(C)[C@H]1C[C@@]23CC[C@@]4(O2)C(=CC[C@]2(C)[C@@H](c5ccc6ccncc6c5)CC[C@H]24)C=C3[C@@H](O)[C@@H]1O | KSR1 (Homo sapiens, UniProt Q8IVT5) | ATP probe labelling, inhibitor, KiNativ profiling |  | 1 µM |  | inhibition | 0.5% |
| CN1Cc2cc(Cl)ccc2-n2c(nnc2C2CCN(c3cccc(F)n3)CC2)C1 |  |  | male Sprague-Dawley rat, plasma | intravenous, 0.03 mg/kg, 5 min |  | concentration | 15 ng/mL |
| CC(C)C[C@@H](NC(=O)[C@@H](CCCNC(=N)N)NC(=O)[C@@H](Cc1c[nH]cn1)NC(=O)[C@@H](Cc1c[nH]c2ccccc12)NC(=O)[C@@H](Cc1c[nH]cn1)NC(=O)[C@@H](Cc1ccccc1)NC(=O)[C@H](NC(=O)[C@@H](Cc1ccc(O)cc1)NC(=O)CNC(=O)CNC(=O)CCOCCOCCOCCNC(=O)CN1CCN(CC(=O)O)CCN(CC(=O)O)CC1)[C@H](C)O)C(=O)N[C@H](CC(N)=O)C(=O)N1CCC[C@@H]1C(=O)O [gallium-68 labelled] |  | OLINDA/EXM | adult female human, stomach wall | extrapolated from C57BL/6 mice |  | organ absorbed dose | 0.0125 ± 0.0002 mSv/MBq |
| C(#Cc1cncc(OC[C@@H]2CCN2)c1)c1ccccc1 |  |  | male Sprague-Dawley rat, plasma | oral, 75 mg/kg, 9 h |  | concentration | 210 ng/mL |
| CC[C@H](C)[C@H](NC(=O)[C@H](CO)NC(=O)[C@H](Cc1ccc(O)cc1)NC(=O)[C@H](Cc1ccc(O)cc1)NC(=O)[C@H](CC(N)=O)NC(=O)CNC(=O)[C@H](CO)NC(=O)[C@H](Cc1ccc(O)cc1)NC(=O)[C@H](CO)NC(=O)[C@H](CO)NC(=O)[C@H](CC(N)=O)NC(=O)COCCOCCNC(=O)CN1CCN(CC(=O)O)CCN(CC(=O)O)CCN(CC(=O)O)CC1)C(=O)N[C@@H](CC(C)C)C(N)=O [copper-64 labelled] |  | dynamic PET | KPC mouse Ptf1a-CreER tdTomato, pancreas | intravenous, 4.6 MBq/mouse, 27.5 min, 84 d after tamoxifen |  | tissue uptake | 12.4 %ID/mL |
| COc1ccccc1-c1n[nH]c2nc(NC3CCN(C(=O)Cc4ccc(F)cc4F)CC3)ncc12 |  | bead binding, competition bead pull-down, measured: LINJ.32.3470 | Leishmania donovani extract | 10 µM | relative to: vehicle | relative abundance | 0.95 |
| C[C@H](O)[C@@H](NC(=O)[C@H]1CCCN1C(=O)[C@@H](CCCCN)NC(=O)[C@@H](CO)NC(=O)[C@@H](Cc1ccc(O)cc1)NC(=O)[C@@H](CC(N)=O)NC(=O)CCOCCOCCOCCNC(=O)CN1CCN(CC(=O)O)CCN(CC(=O)O)CCN(CC(=O)O)CC1)C(=O)N[C@H](CC(=O)O)C(=O)N[C@H](CCCNC(=N)N)C(=O)N[C@H](CCC(N)=O)C(=O)N[C@H](Cc1ccc(O)cc1)C(=O)N[C@H](Cc1c[nH]cn1)C(=O)N[C@H](Cc1ccccc1)C(N)=O [copper-64 labelled] |  |  | C57BL/6J mice, brain | intravenous, 1.85 MBq, 0.3333 h, radiolabelled |  | tissue uptake | 0.11 ± 0.02 %ID/g |
| CC(C)(C)C(=O)OCOP(=O)(OCOC(=O)C(C)(C)C)C1CCCN(O)C1=O (stereo not drawn) | HT-29 |  |  |  |  | log LC50 | > -4 log M |
| C=CCN1CCC23c4c5ccc(OC(=O)c6ccc(N)cc6)c4OC2C(=O)CCC3(O)C1C5 (stereo not drawn) |  |  | human plasma | 24 h |  | remaining compound | 62.3% and 62.5% and 62.7% |

Excerpt of the above:
| Compound | target or system | assay | test system | setting | how to read | endpoint | result |
| --- | --- | --- | --- | --- | --- | --- | --- |
| CCOc1ccccc1-n1c(CN2CCNCC2)nc2ccccc2c1=O |  |  | C57BL/6 mouse, male, plasma | intravenous, 1 mg/kg |  | half-life | 2.38 h |
| CC(CCC(=O)NCC(=O)O)C1CCC2C3C(O)CC4CC(OC5OC(C(=O)O)C(O)C(O)C5O)CCC4(C)C3CCC12C (stereo not drawn) |  |  | men, T/C genotype, plasma | dose not given, geometric mean |  | glucuronide to parent ratio | 0.158 |
| COc1ccccc1-c1n[nH]c2nc(N[C@H]3CC[C@H](NS(=O)(=O)CC(C)C)CC3)ncc12 |  | bead binding, competition bead pull-down, measured: LINJ.03.0360 | Leishmania donovani extract | 10 µM | relative to: vehicle | relative abundance | 0.83 |
